{"data": "Measured values of several laboratories", "note": "Every numbered part comes from another study and shows a few of its results, in no order."}
{"data": "Set 1", "target": "Max-binding protein MNT, bHLH-zipper, MAX partner unstated (MNT, Homo sapiens, UniProt Q99583, residues 220-300)", "method": "protein-binding microarray", "form": "double-stranded DNA, one strand shown", "sample": "in vitro", "concentration": "not given", "setting": "k-mer, scored over probes, only values ≥0.25", "reading": "higher = stronger binding", "Target sequence (chain)": "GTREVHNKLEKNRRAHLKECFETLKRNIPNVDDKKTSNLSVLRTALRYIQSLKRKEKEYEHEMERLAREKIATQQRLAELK"}
{"Oligonucleotide": "ACGGCACG", "E-score": 0.325}
{"Oligonucleotide": "CATGGTGA", "E-score": 0.29}
{"Oligonucleotide": "GGCACGCC", "E-score": 0.319}
{"Oligonucleotide": "CCACCCCG", "E-score": 0.263}
{"Oligonucleotide": "ATACACGC", "E-score": 0.385}
{"Oligonucleotide": "CCCGTGAC", "E-score": 0.324}
{"Oligonucleotide": "ATGGGGTG", "E-score": 0.295}
{"Oligonucleotide": "ACGTGGAA", "E-score": 0.43}
{"Oligonucleotide": "CCACCCCC", "E-score": 0.257}
{"Oligonucleotide": "ACCCATGC", "E-score": 0.383}
{"Oligonucleotide": "CACCTCAC", "E-score": 0.257}
{"Oligonucleotide": "CCCGCACA", "E-score": 0.3}
{"Oligonucleotide": "AAGCACGA", "E-score": 0.292}
{"Oligonucleotide": "ACGTGACC", "E-score": 0.452}
{"Oligonucleotide": "CCGCATGA", "E-score": 0.366}
{"data": "Set 2", "target": "RNA binding protein fox-1 homolog 2, RRM domain, GST-SBP tag (RBFOX2, Homo sapiens, UniProt O43251-10, residues 100-194)", "method": "RNA Bind-n-Seq", "form": "RNA", "sample": "in vitro", "concentration": "365 nM", "setting": "natural RNA segment, single round, ends assumed", "relative to": "no-protein control", "reading": "higher = stronger binding", "shared flanks, not repeated": "GGGAGUUCUACAGUCCGACGAUC … UGGAAUUCUCGGGUGCCAA", "Target sequence (chain)": "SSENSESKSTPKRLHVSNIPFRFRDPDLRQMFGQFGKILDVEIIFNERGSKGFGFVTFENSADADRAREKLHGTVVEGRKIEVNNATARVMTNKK"}
{"Oligonucleotide": "AGAAGGAGUUGCUGACCAGUGCCCACCCCGGCAGCCCGGGAGGAACACAGGCAGCUCCUUUCCCUUCACGUGGUCUGCAGAGAGCAGGGUGAGCUGCCAGCUGCCCCUCU", "RBNS enrichment (R)": 0.202}
{"Oligonucleotide": "UUUGCACGAAAACAGAAAUUCCAUAUCAAUGUGCCUUGCCCUGGAUAGUGAUUAUUUGUGGAAUUGUUGCACAUGCUCCUCAAUUGAAGGGGUUUUUUCCCUACUCAAGC", "RBNS enrichment (R)": 5.53}
{"Oligonucleotide": "GUUUGCCUUGGGCAGCUGUGGGGUUUUUCCGAUCUUGCUAGCCCGCAGGCAUCUUGACAUCUUAGUAACUGCCUUUUUAAUCCCAGUGGCCUGUACCAUAUUAUGGAGAA", "RBNS enrichment (R)": 0.279}
{"Oligonucleotide": "GCUGUUUCACAAUACCUCAUGCUUCACUUAGCCAUGGUGGACCCAGCGGGCAGGUUCUGCCUGCUUUGGCGGGCAGACACGCGGGCGCGAUCCCACACAGGCUGGCGGGG", "RBNS enrichment (R)": 0.249}
{"Oligonucleotide": "UUUUUCUUAACAAGUUAGAAAAUUCAGCUCCUUUCUGUCCUGGAGCUAGCAAAGACUUGUGUGAUGCCUCCGAAGGGGCUCUGAGUUCUGGGGUGGGAGUUUUGCUCUCU", "RBNS enrichment (R)": 0.427}
{"Oligonucleotide": "GAAGAUGGGCAACAAAGAGCCAGGGAGUCAUGGACAUCGCAGCGACGCAGACCCCAGCAGGUUCAGUCCCGUGCUGCCACCAGCUGUCCAGCUGGGUGUCUGGAGGGAAG", "RBNS enrichment (R)": 0.476}
{"Oligonucleotide": "UUGGCCAAGUCCAUGUUGUGUGCUCAGAAGUCUCUUUACCAAAGACCAGGAGCAGGAGCCAAGCAUGUCCAGUCCUCUUCUGAGACCUCUGAGGUCUCAGAAGAGAAACU", "RBNS enrichment (R)": 0.554}
{"Oligonucleotide": "UGACGUUGUUGCAUGUUUGAAAUUCGGUCUGUUUAAAGUGGCAGUCAUGUAUGUGGUUUGGAGGCAGAAUUCUUGAACAUCUUUUGAUGAAGAACAAGGUGGUAUGAUCU", "RBNS enrichment (R)": 4.59}
{"data": "Set 3", "target": "Histone acetyltransferase KAT6A, winged helix 2, GST fusion (KAT6A, Homo sapiens, UniProt Q92794, residues 85-181)", "method": "protein binding microarray", "form": "double-stranded DNA, one strand shown", "sample": "in vitro", "concentration": "not given", "setting": "8-mer, flanks averaged, mean of 2 arrays, mostly near background", "relative to": "not given", "reading": "higher = stronger binding", "Target sequence (chain)": "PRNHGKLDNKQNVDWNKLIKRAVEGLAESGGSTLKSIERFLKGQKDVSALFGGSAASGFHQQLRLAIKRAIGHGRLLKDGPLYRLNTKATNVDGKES"}
{"Oligonucleotide": "CTCGATCA", "E-score": 0.0864}
{"Oligonucleotide": "AATACTAG", "E-score": 0.12}
{"Oligonucleotide": "CGCCCCAA", "E-score": 0.239}
{"Oligonucleotide": "GTGAGCCA", "E-score": -0.13}
{"Oligonucleotide": "CATGCCTA", "E-score": -0.167}
{"Oligonucleotide": "ACGGGACA", "E-score": -0.0212}
{"Oligonucleotide": "AAGGAATC", "E-score": -0.0231}
{"Oligonucleotide": "GGCCTACA", "E-score": -0.0186}
{"Oligonucleotide": "GCGTTTAA", "E-score": -0.139}
{"Oligonucleotide": "ACTTTCCT", "E-score": -0.184}
{"Oligonucleotide": "ATCCCAGC", "E-score": 0.102}
{"Oligonucleotide": "ACCACGCA", "E-score": 0.039}
{"Oligonucleotide": "GCCTTCTA", "E-score": -0.156}
{"Oligonucleotide": "CGTATTCA", "E-score": 0.0301}
{"Oligonucleotide": "GGACCTTA", "E-score": -0.0543}
{"Oligonucleotide": "GATTGATA", "E-score": 0.0916}
{"data": "Set 4", "target": "Fragile X messenger ribonucleoprotein 1, C-terminal low-complexity region (Fmr1, Mus musculus, UniProt P35922)", "method": "RNA Bind-n-Seq", "form": "RNA", "sample": "in vitro", "concentration": "200 nM", "setting": "whole 134-nt RNA, ends assumed", "added": "150 mM KCl", "relative to": "input library", "reading": "higher = stronger binding", "shared flanks, not repeated": "GGGAGUUCUACAGUCCGACGAUC … UGGAAUUCUCGGGUGUCAAGG"}
{"Oligonucleotide": "UAACUUUAGAGGAGGAUCUUAUGGAUAUGGCAGUGGACGUGGAUUUGGGGAUGGCUAUAAUGGGUAUGGAGGAGGACCUGGAGGUGGCAA", "log2 enrichment": 0.275}
{"Oligonucleotide": "CACAGACAACACGCACCCACACAGAAAAAGAGGGAAGGGGUUGGGAUGGGGACAGGGUGCACAGCAGGGCGGGGUAGGACCCCAGCCCCU", "log2 enrichment": 1.26}
{"Oligonucleotide": "AAGUCCUGUGCUACACAUCGUAUGUACCGAAUCGGGUUUGGGAAAAAGGGUUUGGGAAAGUAUUAUGUUACGCCGUUCGGAUCUGCACUU", "log2 enrichment": 0.652}
{"Oligonucleotide": "UAACUUUAGAGUAGGAUCUGAUGGAUAUGGCAGUGGACGUGGAUUUGGGGAUGGCUAUAAUGGGUAUGGAGGAGGACCUGGAGGUGGCAA", "log2 enrichment": 0.398}
{"Oligonucleotide": "CUGUGCUACACAUCGUAUGUACCGAAUCGGGAAAAAAAGGGAAAAAAAGGGAAAAAAAGGGAAAGUAUUAUGUUACGCCGUUCGGAUCUG", "log2 enrichment": -1.05}
{"Oligonucleotide": "ACCAUGCAGGUGGGCAUCUUUGGGAAGUGGGGCAAGGGGGGGAUAGGGAGGGGGGUAACACUUUGGGAACAGGUUGUCCCAGGUCGUUUC", "log2 enrichment": 0.706}
{"Oligonucleotide": "CUGUGCUACACAUCGUAUGUACCGAAUCGGGAAAAAAAGGGAAAAAAAGGGUUUUUUUGGGAAAGUAUUAUGUUACGCCGUUCGGAUCUG", "log2 enrichment": -1.3}
{"Oligonucleotide": "UGGAGCCCAACCUGUGCCGCUCAGUCCUCAUUGCCAACACGGUCCGGCAGAUCCAAGAGGAGAUGACGCAGGAUGGGACGUGGCGCACAG", "log2 enrichment": -0.783}
{"Oligonucleotide": "UUGCUAAUCUAUAAAUUUUUUUUAUAUGAAAUAGCUCAUAGUCGGAAGCCGGCACCCUCAAAUGAGCCCGAAUAUCUAUGUAAAUGGAUG", "log2 enrichment": -2.05}
{"data": "Set 5", "target": "Sal-like protein 4, full length isoform A (SALL4, Homo sapiens, UniProt Q9UJQ4, residues 1-1053)", "method": "universal PBM", "form": "double-stranded DNA, one strand shown", "sample": "in vitro", "concentration": "600 nM", "setting": "8-mer, flanks averaged, mean of replicates", "reading": "higher = stronger binding", "UniProt Q9UJQ4, sequence (whole entry, looked up)": "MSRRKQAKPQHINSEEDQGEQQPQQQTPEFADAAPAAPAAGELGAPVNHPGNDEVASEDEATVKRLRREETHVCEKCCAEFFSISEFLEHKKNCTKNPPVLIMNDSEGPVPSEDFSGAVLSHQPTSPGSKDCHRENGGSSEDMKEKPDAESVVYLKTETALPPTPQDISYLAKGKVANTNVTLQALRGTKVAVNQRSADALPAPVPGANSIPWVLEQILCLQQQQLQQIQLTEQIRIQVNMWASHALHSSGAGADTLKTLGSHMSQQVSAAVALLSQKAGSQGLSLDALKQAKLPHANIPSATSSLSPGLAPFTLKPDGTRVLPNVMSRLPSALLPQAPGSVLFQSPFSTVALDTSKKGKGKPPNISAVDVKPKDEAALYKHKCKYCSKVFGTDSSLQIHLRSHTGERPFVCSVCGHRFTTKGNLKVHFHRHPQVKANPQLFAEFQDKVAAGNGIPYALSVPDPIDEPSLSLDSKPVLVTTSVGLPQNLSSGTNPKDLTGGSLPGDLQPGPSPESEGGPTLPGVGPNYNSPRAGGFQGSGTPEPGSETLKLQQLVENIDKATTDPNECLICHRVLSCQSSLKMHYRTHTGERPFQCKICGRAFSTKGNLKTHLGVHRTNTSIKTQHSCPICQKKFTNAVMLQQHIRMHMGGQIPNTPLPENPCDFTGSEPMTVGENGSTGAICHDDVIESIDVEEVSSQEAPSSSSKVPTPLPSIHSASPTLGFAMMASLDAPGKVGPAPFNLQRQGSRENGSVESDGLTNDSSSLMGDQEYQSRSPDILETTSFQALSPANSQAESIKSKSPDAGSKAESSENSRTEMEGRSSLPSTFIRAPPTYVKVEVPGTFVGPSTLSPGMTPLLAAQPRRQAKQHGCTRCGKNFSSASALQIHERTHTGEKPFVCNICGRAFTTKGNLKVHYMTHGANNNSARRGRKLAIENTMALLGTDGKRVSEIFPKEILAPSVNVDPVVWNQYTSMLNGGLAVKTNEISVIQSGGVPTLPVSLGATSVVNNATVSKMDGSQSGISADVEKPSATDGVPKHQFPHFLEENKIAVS"}
{"Oligonucleotide": "GACCATCC", "E-score": -0.0661}
{"Oligonucleotide": "CCGGTCTA", "E-score": -0.263}
{"Oligonucleotide": "ACACGTTC", "E-score": 0.118}
{"Oligonucleotide": "TATCTAAA", "E-score": 0.261}
{"Oligonucleotide": "GCCTTCGC", "E-score": -0.105}
{"Oligonucleotide": "GAGCTCGA", "E-score": -0.122}
{"Oligonucleotide": "AACGACGC", "E-score": -0.0106}
{"Oligonucleotide": "AATGTGTA", "E-score": 0.289}
{"Oligonucleotide": "CACTAGGG", "E-score": -0.239}
{"Oligonucleotide": "CTGGTTTC", "E-score": -0.128}
{"Oligonucleotide": "AAGTCCCG", "E-score": -0.2}
{"Oligonucleotide": "GACCGACA", "E-score": -0.226}
{"Oligonucleotide": "CCCTCGAG", "E-score": -0.198}
{"Oligonucleotide": "ATCATTAG", "E-score": 0.261}
{"Oligonucleotide": "GTCCACAC", "E-score": -0.147}
{"Oligonucleotide": "GGCCGGAC", "E-score": -0.353}
{"Oligonucleotide": "AACACTAA", "E-score": 0.191}
{"Oligonucleotide": "AGACCCGA", "E-score": -0.121}
{"Oligonucleotide": "CTGGAAAA", "E-score": 0.163}
{"Oligonucleotide": "AATGCCCT", "E-score": -0.0746}
{"Oligonucleotide": "TCGTCAAA", "E-score": 0.169}
{"Oligonucleotide": "CACAAGTG", "E-score": -0.0655}
{"Oligonucleotide": "CAAGGGTC", "E-score": -0.239}
{"Oligonucleotide": "CTCTTATC", "E-score": 0.123}
{"Oligonucleotide": "CACGCCCG", "E-score": -0.313}
{"note": "Excerpt of the above (set 2):"}
{"Oligonucleotide": "AGAAGGAGUUGCUGACCAGUGCCCACCCCGGCAGCCCGGGAGGAACACAGGCAGCUCCUUUCCCUUCACGUGGUCUGCAGAGAGCAGGGUGAGCUGCCAGCUGCCCCUCU", "RBNS enrichment (R)": 0.202}
{"Oligonucleotide": "UUUGCACGAAAACAGAAAUUCCAUAUCAAUGUGCCUUGCCCUGGAUAGUGAUUAUUUGUGGAAUUGUUGCACAUGCUCCUCAAUUGAAGGGGUUUUUUCCCUACUCAAGC", "RBNS enrichment (R)": 5.53}
{"Oligonucleotide": "GUUUGCCUUGGGCAGCUGUGGGGUUUUUCCGAUCUUGCUAGCCCGCAGGCAUCUUGACAUCUUAGUAACUGCCUUUUUAAUCCCAGUGGCCUGUACCAUAUUAUGGAGAA", "RBNS enrichment (R)": 0.279}
{"Oligonucleotide": "GCUGUUUCACAAUACCUCAUGCUUCACUUAGCCAUGGUGGACCCAGCGGGCAGGUUCUGCCUGCUUUGGCGGGCAGACACGCGGGCGCGAUCCCACACAGGCUGGCGGGG", "RBNS enrichment (R)": 0.249}
{"Oligonucleotide": "UUUUUCUUAACAAGUUAGAAAAUUCAGCUCCUUUCUGUCCUGGAGCUAGCAAAGACUUGUGUGAUGCCUCCGAAGGGGCUCUGAGUUCUGGGGUGGGAGUUUUGCUCUCU", "RBNS enrichment (R)": 0.427}
{"Oligonucleotide": "GAAGAUGGGCAACAAAGAGCCAGGGAGUCAUGGACAUCGCAGCGACGCAGACCCCAGCAGGUUCAGUCCCGUGCUGCCACCAGCUGUCCAGCUGGGUGUCUGGAGGGAAG", "RBNS enrichment (R)": 0.476}
{"Oligonucleotide": "UUGGCCAAGUCCAUGUUGUGUGCUCAGAAGUCUCUUUACCAAAGACCAGGAGCAGGAGCCAAGCAUGUCCAGUCCUCUUCUGAGACCUCUGAGGUCUCAGAAGAGAAACU", "RBNS enrichment (R)": 0.554}
{"Oligonucleotide": "UGACGUUGUUGCAUGUUUGAAAUUCGGUCUGUUUAAAGUGGCAGUCAUGUAUGUGGUUUGGAGGCAGAAUUCUUGAACAUCUUUUGAUGAAGAACAAGGUGGUAUGAUCU", "RBNS enrichment (R)": 4.59}
